Results of several laboratories.
Each numbered part is a random draw from the data of one study; scales do not carry over between parts.

Study 1
Target: Ras GTPase-activating protein-binding protein 1, RRM domain (G3BP1, Homo sapiens, UniProt Q13283)
Sequence of UniProt Q13283 (whole entry, looked up): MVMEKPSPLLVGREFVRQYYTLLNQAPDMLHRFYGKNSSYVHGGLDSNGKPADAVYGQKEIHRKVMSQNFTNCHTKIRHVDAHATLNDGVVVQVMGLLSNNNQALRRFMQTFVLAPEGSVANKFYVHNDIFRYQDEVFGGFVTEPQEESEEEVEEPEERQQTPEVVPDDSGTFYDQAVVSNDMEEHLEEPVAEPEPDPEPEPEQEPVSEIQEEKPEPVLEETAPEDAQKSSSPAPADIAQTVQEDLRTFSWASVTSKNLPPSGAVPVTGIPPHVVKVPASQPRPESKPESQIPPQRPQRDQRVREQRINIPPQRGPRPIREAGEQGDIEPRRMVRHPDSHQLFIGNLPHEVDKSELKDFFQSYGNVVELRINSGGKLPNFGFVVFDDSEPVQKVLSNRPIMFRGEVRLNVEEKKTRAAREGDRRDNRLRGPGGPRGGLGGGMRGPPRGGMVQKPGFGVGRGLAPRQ
Technique: RNA Bind-n-Seq
Molecule type: RNA
Medium: in vitro
Tested at: 1 µM
Setting: whole 134-nt RNA, ends assumed
With: 150 mM KCl
Reference: input library
Reading: higher = stronger binding
All sequences stand within: GGGAGUUCUACAGUCCGACGAUC … UGGAAUUCUCGGGUGUCAAGG
Sequence | log2 enrichment
GCAGGAAGUCAAAACAAAUGGAAAUGCUUCGGAUAGUGGCAGGGGUGGGGGUUGCUAAGGAAAGGGUGGGAUGGGAGUGGGUAAAGAGUU | 1.24
GAGCAAAGAGCCAUUCAGCUUCAGUCUUUACAUACCAUGAAUAAAACAUUAAAACAUCAUAUGGAGAAGUUUACAUGGUGAUUGUUCACC | -0.0859
UCCUGUGCUACACAUCGUAUGUACCGAAUCGGUUUUUGGGGUUUUUGGGGUUUUUGGGGAAAGUAUUAUGUUACGCCGUUCGGAUCUGCA | 0.0125
UCCUGUGCUACACAUCGUAUGUACCGAAUCGGGCCCCCGGGGCCCCCGGGGCCCCCGGGAAAGUAUUAUGUUACGCCGUUCGGAUCUGCA | -0.632
ACCAUGCAGGUGGGCAUCUUUGGGAAGUGGGGCAAGGGGGGGAUAGGGAGGGGGGUAACACUUUGGGAACAGAAAGUCCCAGGUCGUUUC | -0.491
GUCCUGUGCUACACAUCGUAUGUACCGAAUCGGGGAGGGGAAAAAGGGGUUUUUGGGGAAAGUAUUAUGUUACGCCGUUCGGAUCUGCAC | 1.03
CCUCAAGUCCUGUGCUACACAUCGUAUGUACCGAAUCGGCGGGCGGGCGGGGAAAGUAUUAUGUUACGCCGUUCGGAUCUGCACUUCCAG | -0.0417
UGGCAGAGAAAUUGCAGCUGCAGGAGCAGCUCCAGGCAGAAACCGAGCUGUGUGCCGAGGCUGAGGAGCUCCGGGCCCGCCUGACCGCCA | -0.282
CCUCAAGUCCUGUGCUACACAUCGUAUGUACCGAAUCGGCCGGGCCGGCCGGGAAAGUAUUAUGUUACGCCGUUCGGAUCUGCACUUCCA | -0.367
ACCAUGCAGGUGGGCAUCUUUGGGAAGUGGGGCAAGGGGGGGAUAGGGAGGGGGCUAACACUUUGGGAACAGGUGGUCCCAGGUCGUUUC | 0.45
CACAGACAACACGCACCCACACAGACACAGAGGGAAGGGGUUGGGAUGGGGACAGGGUGCACAGCAGGGCGGGGUACGACCCCAGCCCCU | -0.263
AGUCCUGUGCUACACAUCGUAUGUACCGAAUCGGGGAAAGGGGAGGGGAAAAAGGGGAAAGUAUUAUGUUACGCCGUUCGGAUCUGCACU | 0.998
CCUCAAGUCCUGUGCUACACAUCGUAUGUACCGAAUCGGCGGGGCGGCGGGGAAAGUAUUAUGUUACGCCGUUCGGAUCUGCACUUCCAG | -0.439
UCCUGUGCUACACAUCGUAUGUACCGAAUCGGAAAAAAGGGAAAAAAGGAAAAAAGGGGAAAGUAUUAUGUUACGCCGUUCGGAUCUGCA | 0.0785

Study 2
Target: RING finger protein unkempt homolog, zinc fingers 1-6, GST-SBP tag (UNK, Homo sapiens, UniProt Q9C0B0, residues 30-357)
Technique: RNA Bind-n-Seq
Molecule type: RNA
Medium: in vitro
Tested at: not given
Setting: RNA with constant flanks, human-mouse chimeric sites, ends assumed
Reference: input RNA pool
Reading: higher = stronger binding
All sequences stand within: GGGAGUUCUACAGUCCGACGAUC … CAACAGAGGAUUGAGCAUCA
Target sequence (chain): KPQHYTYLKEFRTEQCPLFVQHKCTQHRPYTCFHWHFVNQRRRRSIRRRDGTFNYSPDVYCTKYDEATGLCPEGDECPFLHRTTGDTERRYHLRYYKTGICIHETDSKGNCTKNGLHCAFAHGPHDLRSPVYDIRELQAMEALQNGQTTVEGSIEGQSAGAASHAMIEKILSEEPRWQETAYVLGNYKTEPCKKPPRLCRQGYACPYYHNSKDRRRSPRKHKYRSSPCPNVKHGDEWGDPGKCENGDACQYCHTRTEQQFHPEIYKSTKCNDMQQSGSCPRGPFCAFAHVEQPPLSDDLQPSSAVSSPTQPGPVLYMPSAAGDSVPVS
Sequence | bound/input enrichment [ratio]
GUUGCCAGCUUCCGGUUGGCCUCCAUCCGGUUCUCUCCUGAGCUACGUGUCUCUACGCUCUCAAUCCGCCAUCCAACAAACAUGGAUCAGGUAAUGCAGUUUGUGGAUGAGCCAAGUCAG | 0.0629
UACUACUAUGAUGGUGAUAUUGGCAAUUAUUAUUAUGGCCAGGGUCAUCCCAUGAAGCCUCAUAGAAUCCGGAUGACUCAUAACUUGCUGUUAAAUUAUGGUUUAUACAGAAAAAUGGAA | 0.126
GGACAUCUGUCAAAUUGUUAUGUUCCUAAAAACGUAGUGAACACUCUGAUACACUUCAUCUGCUUGUACAUCUGUAUGAUAGAGAAAUGUAAAUAUGUUAAUCCAAGCAAUGUGUCACUU | 0.286
CGCUGGCGUUGAACUGUGGACUCUGAUGGCCUCCAUCUCUCAGGCACGUGUGCCUUCUCUUAGUCCCUGUUUUCGGGAUGUUAUGAAUCUCAGUACUGUGGUUUGAAAGCAGUUAUGUUG | 0.243
GCGGCAGAAUCAUGGAGGACAUAAUGCAGCUCCCCAAAGCGCGCGUCAACGCCGGCAUGUUACCACAGUAUAUCGACAAGCCUGUCUGCUUCGUGGGGAAGCUGGAAAAGAUUCAUCCCA | 0.138
GUGACUGGUGUUAAGAUUUCCCCUCAGCAAAGAAGUGCAGUAGUCACCAUAAUUCCAUCUAUAGUGAGUGCCAGUCAGAUAAAAGAGCUGGUCCCAGACCUCAGUUUAGACAUGGGAACU | 0.63
UACUACUGAAUCUGUGAUAUUGGCAAUUAUUAUUAUGGCCAGGGUCAUCCCAUGAAGCCUCAUAGAAUCCGGAUGACCCAUAACUUGCUGCUAAAUUAUGGUUUAUACCGAAAAAUGGAA | 0.38
CGCUGGCCCAAGCUGAUGGACUCUGAUGGCCUCCAUCUCUCAGGCACGUGUGCCUUCUCUUAGUCCCUGUUUUCGGGAUGUUAUGAACAGUAUCAUGGUGGUUUGAAAGCACCAGCUUUG | 0.0921
GCUCUUGGGAAUGUAAUAAGUGCCUUGGGAGACAAGAGCAAGAGAGCCACCCAUGUCCCUUACAGAGACUCUAAGCUGACAAGACUCUUGCAGGAUUCCCUUGGGGGUAACAGCCAAACC | 0.122
ACAGUUAUACACUGUUGUUUCAUUUUCAUAUAUUCUUGUAGUGUCUGCUUGCCUGUGACUUCUGGUAAAAUAAAAUAAGCCUUUGAAUUAGCAUGCUCAUGGUAUUUAACAUUUUCUAAA | 1.15
GCAGGAUCUUCUAAAUACCAGUGGGGCAUUAUGAAAUCCCUUGGGCUCUCUGAUGACGACAUAGUGAAGUUUUCUGAAGCAGAGCACUGGCUUGAUUAUUUCCCACCACUGGCCGUUCAG | 0.0857

Study 3
Target: Histone acetyltransferase KAT6A, winged helix 1, GST fusion (KAT6A, Homo sapiens, UniProt Q92794, residues 1-85)
Technique: protein binding microarray
Molecule type: double-stranded DNA, one strand shown
Medium: in vitro
Tested at: not given
Setting: 8-mer, flanks averaged, mean of 2 arrays, mostly near background
Reference: not given
Reading: higher = stronger binding
Construct (chain): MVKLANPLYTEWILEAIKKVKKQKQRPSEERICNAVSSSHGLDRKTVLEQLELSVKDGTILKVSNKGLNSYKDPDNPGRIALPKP
Sequence | E-score
ACAACTAC | -0.0775
AATCCTAC | -0.0978
ACGTACCG | 0.103
ATCCGCTA | 0.258
ACCGTAAC | 0.233
ACCACCAC | -0.197
CTAACTAG | 0.00014
AATAATCG | -0.185
AATAGGAC | -0.142
CCCTTGAA | 0.0143
AGTTCTCG | -0.298
CTCATCGA | -0.199
AACGTAAC | -0.0901
AACCTGGG | -0.132
ACATGTTG | -0.108
CGCCGCCC | 0.411
AGAGACGG | -0.0519
AGTGCTTA | -0.0789
CACCGGAG | 0.225
ATTGCTAG | -0.0685

Study 4
Target: Interferon regulatory factor 7, full length, phosphomimetic (IRF7, Homo sapiens, UniProt Q92985, residues 1-503, S101K/S471D/S472D/S475D/S476D/S477D/S483D/S484D/S487D)
Technique: protein-binding microarray
Molecule type: double-stranded DNA, one strand shown
Medium: in vitro
Tested at: 250 nM
Setting: 60-bp whole probe
With: salmon DNA 0.4 mg/ml
Reference: random background probes
Reading: higher = stronger binding
All sequences stand within: GCCTAGCAC … GTCTTGATTCGCTTGACGCTGCTG
Target sequence (chain): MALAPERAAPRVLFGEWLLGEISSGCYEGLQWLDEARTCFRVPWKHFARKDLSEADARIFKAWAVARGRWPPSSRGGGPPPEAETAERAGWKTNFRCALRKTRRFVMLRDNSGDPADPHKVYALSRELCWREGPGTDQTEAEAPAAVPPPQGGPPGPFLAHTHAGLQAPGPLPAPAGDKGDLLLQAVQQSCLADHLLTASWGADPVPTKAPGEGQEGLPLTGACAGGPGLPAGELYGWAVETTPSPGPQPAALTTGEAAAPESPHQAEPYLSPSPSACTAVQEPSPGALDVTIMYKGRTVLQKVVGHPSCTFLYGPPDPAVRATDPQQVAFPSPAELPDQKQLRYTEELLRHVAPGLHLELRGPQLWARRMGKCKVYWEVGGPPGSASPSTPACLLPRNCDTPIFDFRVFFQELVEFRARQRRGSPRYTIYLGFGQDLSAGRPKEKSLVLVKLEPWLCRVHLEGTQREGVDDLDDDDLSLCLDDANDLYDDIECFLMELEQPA
Sequence | log fluorescence [z-score]
TTAGGTTCCCGTTTCGGTTAGTGCTAG | 6.42
TTAGGTATCGGATTTCGGTTAGTGCTA | 2.45
GACGGTATCGGGACTGGGAACGTGCTA | -0.18
GACGGTTTCCTTCTCCCGACGTGCTAG | 2.96
TTAGGGCTCCTTCTCCTTTAGTGCTAG | -0.181
TTAGGACTGGACTTTGGGTTAGTGCTA | -0.649
TCACCTCTCTGTCCCCCTTTGTGCTAG | 0.739
GACGATATCGGGACTAGAGACGTGCTA | -0.307
TCATTTCTATGTCTGTTACTGTGCTAG | 1.63
TTAGATCTCATTCTCGATTAGTGCTAG | 1.77
TTAGGTCTCCCTCTCCTTTAGTGCTAG | -0.269
TTAGAGCTCCTCCTTCTCTAAGTGCTA | -0.671
TTAGGTTCCCTTTTCCTCTAGTGCTAG | 3.97
GACGGTATCCTTCTTCTGACGTGCTAG | 0.393
TCACGTTACTTCCTCAAACTGTGCTAG | 0.704
TTGGGACTGGGACTGGGTTAGTGCTAG | -0.151
TCATCTTTCATTGCTGCACTGTGCTAG | 0.587
GACGAACTGAGTTTCGATACGTGCTAG | 6.43
TTAGGACTGGGTTTCGGTTTGTGCTAG | 11.3
GACGGACTGAGTTTCGGGACGTGCTAG | 2.35
GACGGTATCGGGTATCGGGAGGTGCTA | 0.59
TAAGTTTCACTTTCCAAAGCGTGCTAG | 11.3
GACGGACTGGCTCTCGGGACGTGCTAG | -0.734
TTAGATATCGGGACTAGATTAGTGCTA | 0.206
TTAGGTTACGGGACTGGGTTAGTGCTA | 0.0852

Study 5
Target: Sal-like protein 4, full length isoform A (SALL4, Homo sapiens, UniProt Q9UJQ4, residues 1-1053)
Sequence of UniProt Q9UJQ4 (whole entry, looked up): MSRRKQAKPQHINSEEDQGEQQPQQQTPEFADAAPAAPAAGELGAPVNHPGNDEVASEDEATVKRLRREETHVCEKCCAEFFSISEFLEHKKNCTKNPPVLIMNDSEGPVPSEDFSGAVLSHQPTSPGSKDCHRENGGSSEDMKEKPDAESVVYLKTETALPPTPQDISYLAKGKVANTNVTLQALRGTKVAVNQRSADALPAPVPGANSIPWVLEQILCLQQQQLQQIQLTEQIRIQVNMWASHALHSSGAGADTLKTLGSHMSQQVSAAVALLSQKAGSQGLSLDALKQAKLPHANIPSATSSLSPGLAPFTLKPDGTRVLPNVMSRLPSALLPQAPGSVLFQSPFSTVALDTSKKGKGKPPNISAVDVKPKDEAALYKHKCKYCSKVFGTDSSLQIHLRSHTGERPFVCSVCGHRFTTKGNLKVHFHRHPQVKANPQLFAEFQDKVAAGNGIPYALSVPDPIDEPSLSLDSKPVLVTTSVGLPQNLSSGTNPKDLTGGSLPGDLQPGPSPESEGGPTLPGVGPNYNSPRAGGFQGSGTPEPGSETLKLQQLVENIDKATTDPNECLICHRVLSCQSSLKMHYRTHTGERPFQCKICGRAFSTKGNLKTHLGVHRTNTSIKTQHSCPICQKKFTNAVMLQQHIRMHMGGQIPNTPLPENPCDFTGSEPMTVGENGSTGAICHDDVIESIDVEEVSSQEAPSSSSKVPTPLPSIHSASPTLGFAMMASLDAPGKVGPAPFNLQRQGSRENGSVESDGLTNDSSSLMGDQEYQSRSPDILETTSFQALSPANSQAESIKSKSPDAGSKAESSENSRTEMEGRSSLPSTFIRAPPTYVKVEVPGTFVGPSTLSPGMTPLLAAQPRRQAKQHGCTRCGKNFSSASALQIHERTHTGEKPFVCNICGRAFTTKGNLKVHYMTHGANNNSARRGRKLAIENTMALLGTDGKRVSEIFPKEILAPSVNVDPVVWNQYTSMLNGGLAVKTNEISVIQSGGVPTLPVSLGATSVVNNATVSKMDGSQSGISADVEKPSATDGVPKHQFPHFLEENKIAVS
Technique: universal PBM
Molecule type: double-stranded DNA, one strand shown
Medium: in vitro
Tested at: 600 nM
Setting: 8-mer, flanks averaged, mean of replicates
Reading: higher = stronger binding
Sequence | E-score
GTGGGAAA | 0.0289
AACGGCGG | -0.281
ATAACACG | 0.144
CTCACCCA | -0.13
CGCCCAAA | -0.0766
ATCGAATC | 0.0486
CAAGAAGC | 0.0542
ATGGGGGC | -0.283
ATATGAGG | 0.164
ATTCGGAA | 0.132
ACTTGGGA | -0.113
AGTCTTGG | -0.00148
CCCGGAAA | -0.235
ACACATTA | 0.223
ACATCTTG | 0.07
AATAGTCC | 0.0197
ACAACAAC | 0.186
GCTTGGCA | -0.093

Excerpt of the above (study 3):
Sequence | E-score
CCCTTGAA | 0.0143
AATCCTAC | -0.0978
AATAGGAC | -0.142
AGTTCTCG | -0.298
ACCACCAC | -0.197
AACGTAAC | -0.0901
CTAACTAG | 0.00014
ACCGTAAC | 0.233
ACAACTAC | -0.0775
AATAATCG | -0.185
AGTGCTTA | -0.0789
AACCTGGG | -0.132
CGCCGCCC | 0.411
ACGTACCG | 0.103
